Measured values from different studies.
Every numbered part comes from another study and shows a few of its results, in no order.

Set 1
Target: Interferon regulatory factor 5, full length, phosphomimetic (IRF5, Homo sapiens, UniProt Q13568-2, residues 1-514, S451D/S453D/S456D/S462D)
Technique: protein-binding microarray
Form: double-stranded DNA, one strand shown
Matrix: in vitro
Tested at: 940 nM top
Setting: 60-bp whole probe
Added: salmon DNA 0.4 mg/ml
Reference: random background probes
Reading: higher = stronger binding
All sequences stand within: GCCTAGCAC … GTCTTGATTCGCTTGACGCTGCTG
Strand | fitted relative affinity [z-score]
GACGGATTCGACACTGGGGACGTGCTA | 0.05
GTCGGTATCCTTCTCCTGACGTGCTAG | 1.67
GACGGTCTCCTTCCCCTGACGTGCTAG | 0.466
TTAGGTCTCGGTAGCGGTTAGTGCTAG | 4.35
TTAGGACAGCTTCTCCTTTAGTGCTAG | -0.514

Set 2
Target: Sal-like protein 4, full length isoform A (SALL4, Homo sapiens, UniProt Q9UJQ4, residues 1-1053)
Chain of UniProt Q9UJQ4 (whole entry, looked up): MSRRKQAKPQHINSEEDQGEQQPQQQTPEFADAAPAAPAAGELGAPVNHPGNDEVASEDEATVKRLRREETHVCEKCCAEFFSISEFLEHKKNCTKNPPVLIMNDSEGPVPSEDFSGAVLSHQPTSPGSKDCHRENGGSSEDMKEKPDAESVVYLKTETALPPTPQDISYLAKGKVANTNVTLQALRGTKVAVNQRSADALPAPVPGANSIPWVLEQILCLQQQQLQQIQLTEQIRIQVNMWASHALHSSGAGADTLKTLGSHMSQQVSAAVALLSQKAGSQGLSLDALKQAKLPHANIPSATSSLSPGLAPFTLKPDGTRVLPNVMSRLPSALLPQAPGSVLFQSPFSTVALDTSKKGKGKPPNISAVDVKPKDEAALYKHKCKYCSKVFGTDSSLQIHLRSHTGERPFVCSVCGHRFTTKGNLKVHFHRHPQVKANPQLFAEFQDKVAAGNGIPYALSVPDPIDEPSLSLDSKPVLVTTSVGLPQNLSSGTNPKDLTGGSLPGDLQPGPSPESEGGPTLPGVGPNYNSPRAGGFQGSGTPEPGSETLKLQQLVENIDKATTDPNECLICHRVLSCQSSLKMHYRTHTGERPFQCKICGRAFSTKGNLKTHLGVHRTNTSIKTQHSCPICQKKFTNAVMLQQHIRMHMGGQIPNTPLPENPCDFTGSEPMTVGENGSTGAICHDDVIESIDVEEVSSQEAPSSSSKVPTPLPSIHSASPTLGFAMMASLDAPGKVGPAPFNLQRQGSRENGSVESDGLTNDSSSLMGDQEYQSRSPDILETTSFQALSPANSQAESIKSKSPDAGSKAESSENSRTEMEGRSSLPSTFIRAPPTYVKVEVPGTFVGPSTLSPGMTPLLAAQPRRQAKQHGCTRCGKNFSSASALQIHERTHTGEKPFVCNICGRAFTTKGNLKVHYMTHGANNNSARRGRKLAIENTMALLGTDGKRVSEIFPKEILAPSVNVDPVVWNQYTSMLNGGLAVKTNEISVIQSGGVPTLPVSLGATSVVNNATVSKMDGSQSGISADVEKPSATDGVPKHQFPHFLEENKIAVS
Technique: universal PBM
Form: double-stranded DNA, one strand shown
Matrix: in vitro
Tested at: 600 nM
Setting: 8-mer, flanks averaged, mean of replicates
Reading: higher = stronger binding
Strand | E-score
CGCGATAA | 0.148
CTAGAAAC | 0.0404
CTGTTGTA | 0.0954
AGCAAGAG | -0.0887
CTCCGATA | 0.0532

Set 3
Target: Histone acetyltransferase KAT6A, winged helix 1, GST fusion (KAT6A, Homo sapiens, UniProt Q92794, residues 1-85)
Technique: protein binding microarray
Form: double-stranded DNA, one strand shown
Matrix: in vitro
Tested at: not given
Setting: 8-mer, flanks averaged, mean of 2 arrays, mostly near background
Reference: not given
Reading: higher = stronger binding
Residues (chain): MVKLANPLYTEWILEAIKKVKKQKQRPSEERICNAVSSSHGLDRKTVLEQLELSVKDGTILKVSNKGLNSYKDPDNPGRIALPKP
Strand | E-score
AAGTAACA | -0.0935
TCTCAGCA | -0.252
GCACTATA | 0.0721
AATCTTGA | -0.195
ACTTATGC | -0.0979
AACAGCTC | -0.0347

Other studies, line by line
Molecule | target | test | test system | setting | how to read | measurement | result
PhoQ, residues 284 288 289 292 302 303 SLANIV | PhoP, residues 12 14 15 18 19 AQALL (Escherichia coli, UniProt P23836) | Sort-seq, refers to: YFP reporter | E. coli | PhoQ-PhoP variant library, added: 10 µM Mg2+ | reference: high Mg2+ state, higher = stronger signaling | fold induction | 15.6

For quick reference, copied from above (set 1):
Strand | fitted relative affinity [z-score]
GACGGTCTCCTTCCCCTGACGTGCTAG | 0.466
